Measured values pooled from the literature.

`COCCOCCOCCOCCOCCOCCOCCOCCOCCOCCOCCOCCNC(=O)CCC1(Cc2ccccc2)c2ccccc2-c2ccc(-c3sc(-c4c5c(c(-c6sc(-c7ccc8c(c7)C(CCC(=O)NCCOCCOCCOCCOCCOCCOCCOCCOCCOCCOCCOCCOC)(Cc7ccccc7)c7ccccc7-8)c7c6OCCO7)c6nsnc46)N=S=N5)c4c3OCCO4)cc21` (stereo not shown): “critical aggregation concentration” 0.107 mg/mL (deionized water).
`CC[C@H](C)[C@H](NC(=O)[C@H](CCN)NC(=O)[C@H](Cc1ccccc1)NC(=O)[C@H](Cc1ccccc1)NC(=O)CCCCCO)C(=O)N[C@@H](CCN)C(=O)N[C@H](Cc1ccccc1)C(=O)N[C@@H](CC(C)C)C(=O)N[C@@H](CCN)C(=O)N[C@@H](C(=O)N[C@@H](CC(C)C)C(=O)N[C@@H](CO)C(N)=O)C(C)C`: “critical micelle concentration” 959 µM (light transmittance; PBS; pH 7.4).
`O=C(Cc1ccc2ccccc2c1)N[C@H](Cc1ccccc1)C(=O)N[C@H](Cc1ccccc1)C(=O)N[C@H](Cc1ccc(OP(=O)(O)O)cc1)C(=O)N[C@H](Cc1ccc(OP(=O)(O)O)cc1)C(=O)O` gave a critical strain of 1% (substrate, rheology; hydrogel; 0.5 wt%, added: alkaline phosphatase 1 U/mL).
`Nc1ccn(CC(=O)N[C@@H](Cc2ccccc2)C(=O)N[C@@H](Cc2ccccc2)C(=O)O)c(=O)n1` has a critical strain of 0.6% (oscillatory rheology; hydrogel in water; 2.0 wt%, pH 5.0 or 7.4, added: alkaline phosphatase at pH 7.4).
`O=C(Cc1ccc2ccccc2c1)N[C@H](Cc1ccc(O)cc1)C(=O)N[C@H](Cc1ccccc1)C(=O)N[C@H](Cc1ccccc1)C(=O)N[C@H](Cc1ccc(OP(=O)(O)O)cc1)C(=O)O` gave a critical strain of 1.5% (substrate, rheology; hydrogel; 0.5 wt%, added: alkaline phosphatase 1 U/mL).
`COC(=O)[C@H](CSSC[C@H](NC(=O)[C@H](Cc1ccccc1)NC(=O)[C@H](Cc1ccccc1)NC(=O)OC(C)(C)C)C(=O)OC)NC(=O)[C@H](Cc1ccccc1)NC(=O)[C@H](Cc1ccccc1)NC(=O)OC(C)(C)C`: “critical aggregation concentration” 1.07 mg/mL (surface tension).
`CCC(c1nnnn1Cc1cccs1)N1CCC(c2nc3cc(N)cc(F)c3s2)CC1` (stereo not shown): “critical aggregation concentration” 46.6 µM (light scattering; DNase I buffer; 5% DMSO).
`CCCCCCCCCCCC(=O)N[C@@H](CC(C)C)C(=O)N[C@@H](CCCNC(=N)N)C(=O)N[C@@H](CCC(=O)O)C(=O)N[C@@H](CC(C)C)C(=O)N[C@@H](Cc1c[nH]cn1)C(=O)N[C@@H](CC(C)C)C(=O)N[C@@H](CC(N)=O)C(=O)N[C@@H](CC(N)=O)C(=O)N[C@@H](CC(N)=O)C(N)=O` — result for “critical gelation concentration”: 1 mM (PBS; after jet nebulization).
`Cc1cn(CC(=O)N[C@@H](Cc2ccccc2)C(=O)N[C@@H](Cc2ccccc2)C(=O)N[C@@H](Cc2ccc(O)cc2)C(=O)O)c(=O)[nH]c1=O` has a critical strain of 8% (oscillatory rheology; hydrogel in water; 2.0 wt%, pH 5.0 or 7.4, added: alkaline phosphatase at pH 7.4).
Under “critical aggregation concentration”, `CCC(c1nnnn1Cc1cccs1)N1CCN(c2nc3cc(N)cc(F)c3s2)CC1` (stereo not shown) is recorded as 45 µM (light scattering; DNase II reaction buffer).
The critical strain of `O=C(Cc1ccc2ccccc2c1)N[C@H](Cc1ccc(OP(=O)(O)O)cc1)C(=O)N[C@H](Cc1ccccc1)C(=O)N[C@H](Cc1ccccc1)C(=O)N[C@H](Cc1ccc(OP(=O)(O)O)cc1)C(=O)O` is reported as 1% (substrate, rheology; hydrogel; 0.5 wt%, added: alkaline phosphatase 1 U/mL).
Under “critical aggregation concentration”, `NCCNC(=O)[C@H](Cc1ccccc1)NC(=O)[C@H](Cc1ccccc1)NC(=O)CNC(=O)c1cc(C(=O)NCC(=O)N[C@@H](Cc2ccccc2)C(=O)N[C@@H](Cc2ccccc2)C(=O)NCCN)cc(C(=O)NCC(=O)N[C@@H](Cc2ccccc2)C(=O)N[C@@H](Cc2ccccc2)C(=O)NCCN)c1` is recorded as 835 µM (Nile Red fluorescence; water; pH 4.0, room temperature).
Under “critical aggregation concentration”, `Oc1cc(O)c2c(c1)OC(c1ccc(O)c(O)c1)C(OC1(c3ccc(O)c(O)c3)Oc3cc(O)cc(O)c3C(O)C1O)C2` (stereo not shown) is recorded as 2.8 µM (RWG biosensor; HBSS HEPES buffer; pH 7.2).
For `COC(=O)[C@H](Cc1ccccc1)NC(=O)[C@H](Cc1ccccc1)N=Cc1ccc(C=N[C@@H](Cc2ccccc2)C(=O)N[C@@H](Cc2ccccc2)C(=O)OC)cc1`, “critical aggregation concentration” read 1.31 mg/mL (surface tension tensiometry).
For `Nc1nc2c(ncn2CC(=O)N[C@@H](Cc2ccccc2)C(=O)N[C@@H](Cc2ccccc2)C(=O)O)c(=O)[nH]1`, the critical strain was 0.8% (oscillatory rheology; hydrogel in water; 2.0 wt%, pH 5.0 or 7.4, added: alkaline phosphatase at pH 7.4).
`CCC(c1nnnn1Cc1cccs1)N1CCN(c2nc3cc(N(C)C)cc(F)c3s2)CC1` (stereo not shown): “critical aggregation concentration” 16.8 µM (light scattering; DNase I buffer; 5% DMSO).

Some of these lines once more:
Under “critical aggregation concentration”, `CCC(c1nnnn1Cc1cccs1)N1CCN(c2nc3cc(N)cc(F)c3s2)CC1` (stereo not shown) is recorded as 45 µM (light scattering; DNase II reaction buffer).
